Published values of several laboratories.
Every numbered part comes from another study and shows a few of its results, in no order. Changes are numbered by the printed parent chain.
UniProt Q9C5X0, sequence (whole entry, looked up): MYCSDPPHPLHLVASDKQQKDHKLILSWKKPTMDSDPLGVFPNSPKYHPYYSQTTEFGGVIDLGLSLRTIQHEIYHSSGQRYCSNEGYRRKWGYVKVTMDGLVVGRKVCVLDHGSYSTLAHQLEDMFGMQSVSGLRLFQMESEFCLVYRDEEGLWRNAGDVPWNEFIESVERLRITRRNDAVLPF
UniProt Q9XID4, sequence (whole entry, looked up): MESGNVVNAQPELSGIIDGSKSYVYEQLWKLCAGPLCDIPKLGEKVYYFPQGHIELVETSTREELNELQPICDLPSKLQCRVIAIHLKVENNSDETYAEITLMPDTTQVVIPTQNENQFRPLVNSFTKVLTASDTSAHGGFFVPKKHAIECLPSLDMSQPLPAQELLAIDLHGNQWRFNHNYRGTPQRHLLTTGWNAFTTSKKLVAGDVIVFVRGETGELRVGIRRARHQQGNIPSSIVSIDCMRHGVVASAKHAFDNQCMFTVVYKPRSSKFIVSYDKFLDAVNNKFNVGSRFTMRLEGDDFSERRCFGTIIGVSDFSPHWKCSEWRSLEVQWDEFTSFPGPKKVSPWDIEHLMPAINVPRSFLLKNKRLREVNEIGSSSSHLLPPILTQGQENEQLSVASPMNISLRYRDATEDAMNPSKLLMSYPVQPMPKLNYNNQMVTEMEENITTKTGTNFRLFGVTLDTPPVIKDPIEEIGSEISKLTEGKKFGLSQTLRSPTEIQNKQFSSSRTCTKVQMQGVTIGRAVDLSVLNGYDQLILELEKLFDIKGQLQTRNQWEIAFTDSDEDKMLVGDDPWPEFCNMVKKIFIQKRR
UniProt Q93WC4, sequence (whole entry, looked up): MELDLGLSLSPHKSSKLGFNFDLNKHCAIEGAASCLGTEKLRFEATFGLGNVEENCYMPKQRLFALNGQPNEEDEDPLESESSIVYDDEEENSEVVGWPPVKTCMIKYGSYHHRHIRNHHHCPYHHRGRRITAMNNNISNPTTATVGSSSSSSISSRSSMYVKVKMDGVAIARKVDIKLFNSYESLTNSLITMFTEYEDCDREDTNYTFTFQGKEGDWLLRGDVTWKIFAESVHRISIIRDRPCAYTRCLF
UniProt P33078, sequence (whole entry, looked up): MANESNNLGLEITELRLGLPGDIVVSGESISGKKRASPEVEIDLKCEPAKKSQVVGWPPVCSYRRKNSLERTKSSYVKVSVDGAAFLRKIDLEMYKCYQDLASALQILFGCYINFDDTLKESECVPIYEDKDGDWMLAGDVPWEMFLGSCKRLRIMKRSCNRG
UniProt P93024, sequence (whole entry, looked up): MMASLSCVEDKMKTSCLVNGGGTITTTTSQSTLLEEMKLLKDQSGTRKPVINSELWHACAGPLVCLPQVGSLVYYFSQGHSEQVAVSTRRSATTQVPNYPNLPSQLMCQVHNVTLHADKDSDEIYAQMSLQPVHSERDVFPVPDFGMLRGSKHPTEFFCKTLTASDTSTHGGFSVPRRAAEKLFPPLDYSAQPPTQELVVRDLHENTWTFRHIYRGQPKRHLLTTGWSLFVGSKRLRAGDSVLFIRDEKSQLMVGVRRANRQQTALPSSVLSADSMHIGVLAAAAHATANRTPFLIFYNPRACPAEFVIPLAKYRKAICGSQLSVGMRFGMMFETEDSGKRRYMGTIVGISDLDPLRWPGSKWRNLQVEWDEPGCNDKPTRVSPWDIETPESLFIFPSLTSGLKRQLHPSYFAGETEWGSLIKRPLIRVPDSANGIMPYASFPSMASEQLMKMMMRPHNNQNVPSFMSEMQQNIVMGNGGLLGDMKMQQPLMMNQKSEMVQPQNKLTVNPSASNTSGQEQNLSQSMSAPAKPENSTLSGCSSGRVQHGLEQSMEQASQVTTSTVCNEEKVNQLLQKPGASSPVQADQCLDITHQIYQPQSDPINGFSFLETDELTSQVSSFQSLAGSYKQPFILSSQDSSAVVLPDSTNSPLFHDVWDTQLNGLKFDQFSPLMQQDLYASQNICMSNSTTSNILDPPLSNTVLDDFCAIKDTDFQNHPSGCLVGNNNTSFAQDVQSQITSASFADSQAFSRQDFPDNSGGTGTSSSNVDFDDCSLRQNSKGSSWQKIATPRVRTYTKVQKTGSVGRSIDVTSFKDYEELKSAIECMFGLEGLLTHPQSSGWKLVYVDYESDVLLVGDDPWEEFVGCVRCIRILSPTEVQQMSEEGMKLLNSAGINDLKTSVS
UniProt Q9ZPY6, sequence (whole entry, looked up): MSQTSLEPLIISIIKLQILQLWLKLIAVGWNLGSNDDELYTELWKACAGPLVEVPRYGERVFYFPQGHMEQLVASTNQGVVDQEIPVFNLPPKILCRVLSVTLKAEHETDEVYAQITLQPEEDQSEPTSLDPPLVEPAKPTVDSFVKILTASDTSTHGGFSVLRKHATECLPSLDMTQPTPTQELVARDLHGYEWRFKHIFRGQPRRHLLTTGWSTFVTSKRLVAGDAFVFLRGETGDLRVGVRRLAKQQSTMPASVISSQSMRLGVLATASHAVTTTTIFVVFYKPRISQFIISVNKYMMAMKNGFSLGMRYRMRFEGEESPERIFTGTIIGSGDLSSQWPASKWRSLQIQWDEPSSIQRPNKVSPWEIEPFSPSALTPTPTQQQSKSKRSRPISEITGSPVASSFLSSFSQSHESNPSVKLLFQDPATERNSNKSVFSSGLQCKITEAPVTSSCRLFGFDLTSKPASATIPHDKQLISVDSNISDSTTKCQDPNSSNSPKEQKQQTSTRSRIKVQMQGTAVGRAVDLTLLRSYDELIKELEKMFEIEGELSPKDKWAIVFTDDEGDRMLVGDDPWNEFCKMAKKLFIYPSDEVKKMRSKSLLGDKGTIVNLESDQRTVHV

Sample 1 — Molecule: B1 (IAA3); technique: two-hybrid; direction: higher = firmer interaction
B1: IAA3 (Arabidopsis thaliana, UniProt Q38822); chain MDEFVNLKETELRLGLPGTDNVCEAKERVSCCNNNNKRVLSTDTEKEIESSSRKTETSPPRKAQIVGWPPVRSYRKNNIQSKKNESEHEGQGIYVKVSMDGAPYLRKIDLSCYKGYSELLKALEVMFKFSVGEYFERDGYKGSDFVPTYEDKDGDWMLIGDVPWEMFICTCKRLRIMKGSEAKGLGCGV
It gave 0 for positive tests (IAA29 (Arabidopsis thaliana, UniProt Q93WC4); reference: out of 4 tests).
ARF5 788-902 (Arabidopsis thaliana, UniProt P93024); reference: out of 4 tests — positive tests: 4.
For ARF12 500-593 (Arabidopsis thaliana, UniProt Q9XID4); reference: out of 4 tests: positive tests read 0.
It gave 2 for positive tests (IAA34 (Arabidopsis thaliana, UniProt Q9C5X0); reference: out of 2 tests).
The positive tests was 0 (ARF11 500-622 (Arabidopsis thaliana, UniProt Q9ZPY6); reference: out of 4 tests).
It gave 4 for positive tests (IAA5 (Arabidopsis thaliana, UniProt P33078); reference: out of 4 tests).

Sample 2 — target: CCND2, cyclin fold, Cln2 fusion (human); technique: yeast growth competition, sequencing; sample: yeast; notes: weak parent motif; reference: not given; direction: higher = stronger binding
Starting sequence: E2F1 docking peptide (human); PPVKRRLDLETDH
`PPVKRRLDLPTDH [E10P]`: “normalised enrichment score” -0.0279.
For `PLVKRRLDLETDH [P2L]`, “normalised enrichment score” read 0.0237.
Under “normalised enrichment score”, `PPVERRLDLETDH [K4E]` is recorded as -0.00739.
`PPVKRRLDLETDT [H13T]` — result for “normalised enrichment score”: 0.502.
`PPVKRRLDLLTDH [E10L]` — result for “normalised enrichment score”: 0.308.
Under “normalised enrichment score”, `QPVKRRLDLETDH [P1Q]` is recorded as 0.379.
Under “normalised enrichment score”, `PPVKRRLDLETDD [H13D]` is recorded as 0.412.
`PPVGRRLDLETDH [K4G]`: “normalised enrichment score” 0.286.
For `PPVKRRLDLGTDH [E10G]`, “normalised enrichment score” read 0.409.
`PPPKRRLDLETDH [V3P]` — result for “normalised enrichment score”: 0.157.
For `PPVKRRRDLETDH [L7R]`, “normalised enrichment score” read -0.338.
For `PPVKRRTDLETDH [L7T]`, “normalised enrichment score” read 0.389.
`PPVKRRLDLETGH [D12G]` — result for “normalised enrichment score”: 0.286.
`PWVKRRLDLETDH [P2W]` — result for “normalised enrichment score”: -0.0951.
`PFVKRRLDLETDH [P2F]`: “normalised enrichment score” 0.797.
`PPVKRHLDLETDH [R6H]`: “normalised enrichment score” 0.364.
Under “normalised enrichment score”, `PPVKRRLQLETDH [D8Q]` is recorded as 0.243.
`PPVKRRLPLETDH [D8P]` — result for “normalised enrichment score”: 0.0446.
Under “normalised enrichment score”, `PPVKRDLDLETDH [R6D]` is recorded as -0.279.
`PPVKRRLDLEMDH [T11M]`: “normalised enrichment score” -0.0445.
`PPVKRRLDLVTDH [E10V]` — result for “normalised enrichment score”: 0.0022.
`PYVKRRLDLETDH [P2Y]`: “normalised enrichment score” 0.361.
`PPVKRRLDLETDI [H13I]`: “normalised enrichment score” 0.31.
Under “normalised enrichment score”, `PPVNRRLDLETDH [K4N]` is recorded as -0.0691.
`PPVKRRLDLITDH [E10I]` — result for “normalised enrichment score”: 0.409.

Sample 3 — technique: RNAcompete; form: RNA; sample: in vitro; tested at: 20 nM; notes: 7-mer, probes averaged, single round; reference: mean of 7-mers; direction: higher = stronger binding
Target: PABPC1L2, full length, GST fusion (mouse, UniProt A0ABA7IW68)
Residues (chain): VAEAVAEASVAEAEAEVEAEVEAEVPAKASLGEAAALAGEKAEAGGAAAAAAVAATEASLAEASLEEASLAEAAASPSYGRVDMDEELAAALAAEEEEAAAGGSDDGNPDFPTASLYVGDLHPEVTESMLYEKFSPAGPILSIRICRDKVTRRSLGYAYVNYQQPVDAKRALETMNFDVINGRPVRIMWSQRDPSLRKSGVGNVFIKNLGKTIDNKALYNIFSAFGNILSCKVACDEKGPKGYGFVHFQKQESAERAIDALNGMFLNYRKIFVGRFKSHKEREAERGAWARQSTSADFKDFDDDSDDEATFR
The 7-mer Z-score of `AAGGUUC` is reported as -0.13.
`ACCCUUA` gave a 7-mer Z-score of -0.146.
With `UACAUCG` the 7-mer Z-score was -0.0736.
`AGUACCA` has a 7-mer Z-score of -0.00833.
For `CUUCGUG`, the 7-mer Z-score was -0.304.
For `UUUGCGU`, the 7-mer Z-score was -0.496.
`GUGUUGC` gave a 7-mer Z-score of -0.244.
With `CGCUGCC` the 7-mer Z-score was -0.309.
For `GCGCUAA`, the 7-mer Z-score was 0.0859.
`CGGCGUG` gave a 7-mer Z-score of -0.124.
For `GUUUGCA`, the 7-mer Z-score was -0.291.
With `GUACUCG` the 7-mer Z-score was -0.199.
`CCUUUCA` has a 7-mer Z-score of -0.407.
`GCCAAGC` has a 7-mer Z-score of -0.307.
The 7-mer Z-score of `AUACGAC` is reported as -0.0518.
`CGGAUGC` has a 7-mer Z-score of -0.0609.
With `GCAAAGA` the 7-mer Z-score was 0.608.

Sample 4 — technique: protein-binding microarray; form: double-stranded DNA, one strand shown; sample: in vitro; tested at: 250 nM; notes: 60-bp whole probe; together with: salmon DNA 0.4 mg/ml; reference: random background probes; direction: higher = stronger binding; constant ends, left off below: GCCTAGCAC … GTCTTGATTCGCTTGACGCTGCTG
Target: Interferon regulatory factor 7, full length, phosphomimetic (IRF7, Homo sapiens, UniProt Q92985, residues 1-503, S101K/S471D/S472D/S475D/S476D/S477D/S483D/S484D/S487D)
Target sequence (chain): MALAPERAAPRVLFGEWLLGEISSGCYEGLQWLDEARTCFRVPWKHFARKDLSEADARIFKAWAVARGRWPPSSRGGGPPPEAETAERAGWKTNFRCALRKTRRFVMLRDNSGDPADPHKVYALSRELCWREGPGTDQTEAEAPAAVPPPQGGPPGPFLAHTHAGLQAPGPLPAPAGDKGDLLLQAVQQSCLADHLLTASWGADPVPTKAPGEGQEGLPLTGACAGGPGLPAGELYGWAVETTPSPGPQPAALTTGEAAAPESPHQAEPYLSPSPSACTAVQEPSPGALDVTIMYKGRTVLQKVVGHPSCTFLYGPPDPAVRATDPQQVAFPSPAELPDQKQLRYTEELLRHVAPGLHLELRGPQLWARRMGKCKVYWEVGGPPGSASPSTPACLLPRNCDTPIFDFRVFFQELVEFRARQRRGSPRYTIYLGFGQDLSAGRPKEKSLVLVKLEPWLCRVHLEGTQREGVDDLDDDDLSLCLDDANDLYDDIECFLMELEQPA
For `GACGACCTGGGGTATCGAGACGTGCTA`, the log fluorescence was -0.42 z-score.
`GACCGTATCCTACTGCTGACGTGCTAG` has a log fluorescence of 0.601 z-score.
The log fluorescence of `GACCGTATCGACTTTCGGGACGTGCTA` is reported as 1.19 z-score.
The log fluorescence of `TTAGGTTTCCTACCGCTTTAGTGCTAG` is reported as 0.878 z-score.
For `GACGATCTCAGTTTCTAGACGTGCTAG`, the log fluorescence was 0.904 z-score.
`TCACCTTTCTCTTGGAGACTGTGCTAG` has a log fluorescence of 1.06 z-score.
For `GACGGTTTCGTACTGGGGACGTGCTAG`, the log fluorescence was 4.47 z-score.
`TTAGGTCTCGGTATCGGTTCGTGCTAG` gave a log fluorescence of 4.75 z-score.
With `TTAGGGCTCGGTTTCGGTTAGTGCTAG` the log fluorescence was 10.6 z-score.
For `GACGATTTAAGTTCCGAGACGTGCTAG`, the log fluorescence was 0.454 z-score.
`CTCGGTTTCCAAATTGTCTCGTGCTAG` has a log fluorescence of 3.66 z-score.
`TTAGAACGGAGTCTCGATTAGTGCTAG` has a log fluorescence of 0.818 z-score.
`TTAGATCTCATTATCGATTAGTGCTAG` gave a log fluorescence of 0.72 z-score.
With `TAAGGTTTCGGTATCGGTTAGTGCTAG` the log fluorescence was 11.3 z-score.
With `GACGATAGCGGGTTTCGAGACGTGCTA` the log fluorescence was 2 z-score.
`GCCGATTTCAGTCTCGAGACGTGCTAG` has a log fluorescence of 1.02 z-score.
`TTAGGTCTCGGTATCGGTTAGTGCTAG` gave a log fluorescence of 3.42 z-score.
For `TCATTTCTCTTATTCTAACTGTGCTAG`, the log fluorescence was 2.54 z-score.
The log fluorescence of `GGCGATTTCGGGACTGGAGACGTGCTA` is reported as -0.535 z-score.

A few entries again (sample 3):
`AGUACCA` has a 7-mer Z-score of -0.00833.
For `CUUCGUG`, the 7-mer Z-score was -0.304.
For `UUUGCGU`, the 7-mer Z-score was -0.496.
`GUGUUGC` gave a 7-mer Z-score of -0.244.
With `CGCUGCC` the 7-mer Z-score was -0.309.
For `GCGCUAA`, the 7-mer Z-score was 0.0859.
`CGGCGUG` gave a 7-mer Z-score of -0.124.
For `GUUUGCA`, the 7-mer Z-score was -0.291.
With `GUACUCG` the 7-mer Z-score was -0.199.
`CCUUUCA` has a 7-mer Z-score of -0.407.
